# Measurements pooled from the literature.
# Parts stem from different laboratories: compare values within a part only.

# Sample 1 — method: protein-binding microarray; molecule type: double-stranded DNA, one strand shown; medium: in vitro; tested at: 2200 nM top; notes: 60-bp whole probe; together with: salmon DNA 0.4 mg/ml; baseline: random background probes; direction: higher = stronger binding; constant ends, left off below: GCCTAGCAC … GTCTTGATTCGCTTGACGCTGCTG
# Target: Interferon regulatory factor 7, full length, phosphomimetic (IRF7, Homo sapiens, UniProt Q92985, residues 1-503, S471D/S472D/S475D/S476D/S477D/S483D/S484D/S487D)
# UniProt Q92985, sequence (whole entry, unmodified, looked up): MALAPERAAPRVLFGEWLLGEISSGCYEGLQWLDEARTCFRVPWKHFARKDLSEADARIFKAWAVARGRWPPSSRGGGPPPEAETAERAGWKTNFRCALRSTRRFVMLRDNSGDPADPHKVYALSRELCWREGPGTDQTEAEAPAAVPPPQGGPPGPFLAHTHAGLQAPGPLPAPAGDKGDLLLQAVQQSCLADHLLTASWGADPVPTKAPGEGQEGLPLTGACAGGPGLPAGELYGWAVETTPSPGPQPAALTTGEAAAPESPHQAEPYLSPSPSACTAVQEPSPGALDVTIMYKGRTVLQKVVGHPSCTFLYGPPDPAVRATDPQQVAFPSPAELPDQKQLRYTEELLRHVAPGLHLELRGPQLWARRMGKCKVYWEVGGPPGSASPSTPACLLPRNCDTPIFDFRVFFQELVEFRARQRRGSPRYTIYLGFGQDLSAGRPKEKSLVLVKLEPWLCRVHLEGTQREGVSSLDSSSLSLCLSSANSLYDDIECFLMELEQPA
Sequence,fitted relative affinity
TTAGATTCCAGTTTCGCTTAGTGCTAG,6.03 z-score
ATATATTTATGTATACACACGTGCTAG,1.1 z-score
TTTACTAGGAGTTTTCAGTCCGTGCTA,1.06 z-score
GACGGACTCGGTCTCGGGACGTGCTAG,-0.473 z-score
TTAGAACTGGGGACTGGAATAGTGCTA,-0.553 z-score

# Sample 2 — method: protein binding microarray; molecule type: double-stranded DNA, one strand shown; medium: in vitro; tested at: not given; baseline: not given; direction: higher = stronger binding
# Target: Histone acetyltransferase KAT6A, winged helix 1, GST fusion (KAT6A, Homo sapiens, UniProt Q92794, residues 1-85)
# Notes: 8-mer, flanks averaged, mean of 2 arrays, mostly near background
# Residues (chain): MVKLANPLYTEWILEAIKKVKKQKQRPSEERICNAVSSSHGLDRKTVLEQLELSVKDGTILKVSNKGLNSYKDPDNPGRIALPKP
Sequence,E-score
CAATAACC,-0.0696
CCAGATAA,-0.152
GCCGTCGA,0.312
TGTTCGAA,-0.116
CTTACCTA,-0.197

# Sample 3 — method: universal PBM; molecule type: double-stranded DNA, one strand shown; medium: in vitro; tested at: 600 nM; direction: higher = stronger binding
# Target: Sal-like protein 4, full length isoform A (SALL4, Homo sapiens, UniProt Q9UJQ4, residues 1-1053)
# UniProt Q9UJQ4, sequence (whole entry, looked up): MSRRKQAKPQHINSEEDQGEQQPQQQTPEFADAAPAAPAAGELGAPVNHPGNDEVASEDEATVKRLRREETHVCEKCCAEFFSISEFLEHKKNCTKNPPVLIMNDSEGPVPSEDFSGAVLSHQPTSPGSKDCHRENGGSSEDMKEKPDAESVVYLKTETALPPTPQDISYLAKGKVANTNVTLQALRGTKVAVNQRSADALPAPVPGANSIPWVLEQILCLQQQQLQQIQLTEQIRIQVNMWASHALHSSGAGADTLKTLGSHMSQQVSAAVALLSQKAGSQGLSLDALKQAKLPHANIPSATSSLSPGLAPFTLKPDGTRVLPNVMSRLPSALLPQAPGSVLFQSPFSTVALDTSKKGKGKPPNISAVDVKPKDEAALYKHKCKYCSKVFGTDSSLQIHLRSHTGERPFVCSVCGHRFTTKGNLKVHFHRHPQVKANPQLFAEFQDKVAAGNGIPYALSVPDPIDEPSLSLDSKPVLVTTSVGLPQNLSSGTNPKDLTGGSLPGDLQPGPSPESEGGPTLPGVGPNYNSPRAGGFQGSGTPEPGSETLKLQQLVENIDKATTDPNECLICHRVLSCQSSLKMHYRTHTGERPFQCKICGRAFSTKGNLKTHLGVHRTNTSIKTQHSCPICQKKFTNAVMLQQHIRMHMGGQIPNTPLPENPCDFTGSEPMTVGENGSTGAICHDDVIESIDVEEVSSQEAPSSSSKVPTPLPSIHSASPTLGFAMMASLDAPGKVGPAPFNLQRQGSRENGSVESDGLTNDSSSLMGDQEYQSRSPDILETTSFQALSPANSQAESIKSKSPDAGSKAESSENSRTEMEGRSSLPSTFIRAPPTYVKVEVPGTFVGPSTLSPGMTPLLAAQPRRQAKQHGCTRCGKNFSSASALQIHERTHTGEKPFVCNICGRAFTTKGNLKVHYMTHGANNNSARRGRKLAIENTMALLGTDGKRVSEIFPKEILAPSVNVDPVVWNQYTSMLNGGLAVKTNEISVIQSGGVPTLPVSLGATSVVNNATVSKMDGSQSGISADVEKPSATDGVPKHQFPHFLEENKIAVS
# Notes: 8-mer, flanks averaged, mean of replicates
Sequence,E-score
ACTAGTTA,0.225
AAACTGCA,-0.037
AAGTTCAA,0.225
CAGTCGTA,0.0427

# Other studies, line by line
Substance,target,assay,system,setting,scale,endpoint,value
"PhoQ, residues 284 288 289 292 302 303 ALVSVA","PhoP, residues 12 14 15 18 19 LHSVQ (Escherichia coli, UniProt P23836)","Sort-seq, measured: YFP reporter",E. coli,"PhoQ-PhoP variant library, together with: 10 µM Mg2+","baseline: high Mg2+ state, higher = stronger signaling",fold induction,1.29
